# Published values of several laboratories.
# Numbers after ± are the reported error.
SMILES,test system,conditions,half-life [h]
O=C(CCc1ccc(CNC(C(=O)O)C2CCCCC2)cn1)NO (stereo not shown),"human, plasma","oral, multiple dose",< 1
O=C(O)/C=C/c1cccc(S(=O)(=O)Nc2ccccc2)c1,"human, normal liver function, plasma","intravenous, 400 mg/m^2 belinostat, 30 min infusion, cycle 1 day -7",2.18
Cn1c(=O)oc2ccc(-c3ccc(CC(C#N)NC(=O)C4CNCCCO4)c(F)c3)cc21 (stereo not shown),"human, plasma","20 mg once daily, day 28, mean",26.8
CCCCCCCOc1ccc(CC[C@](N)(CO)COP(=O)(O)O)cc1C(F)(F)F,"healthy male humans, plasma","oral, 0.125 to 0.75 mg multiple doses",380 to 420
NC(=O)/C=C/c1cccc(S(=O)(=O)Nc2ccccc2)c1,"human, severe liver dysfunction, plasma","intravenous, 400 mg/m^2 belinostat, 30 min infusion, cycle 1 day -7",8.08
O=C(CCc1ccc(CNC(C(=O)OC2CCCC2)C2CCCCC2)cn1)NO (stereo not shown),"human, plasma","oral, 60 mg, single dose, geometric mean",0.5
Cc1nc(C)c(C=[N+]([O-])C(C)(C)C)nc1C,"healthy Chinese human, both sexes, serum","oral, 600 mg twice daily, 7 days",1.89
CC(C)(O)c1ncc([S@](N)(=O)=NC(=O)Nc2c3c(cc4c2CCC4)CCC3)s1,"healthy human, fasted","oral, 300 mg single dose, spray-dried dispersion",10.9
C=CC(=O)Nc1cc(Nc2nccc(-c3cn(C4CC4)c4ccccc34)n2)c(OC)cc1N(C)CCNC,"healthy Chinese male human, plasma","oral, 110 mg almonertinib, metabolite, [14C] single dose",41.8 ± 3.93
CONC(=O)/C=C/c1cccc(S(=O)(=O)Nc2ccccc2)c1,"human, severe liver dysfunction, plasma","intravenous, 400 mg/m^2 belinostat, 30 min infusion, cycle 1 day -7",2.22
CC(=O)N[C@H](CC(=O)O)C(=O)N[C@H](Cc1c[nH]c2ccccc12)C(=O)N[C@H](Cc1ccccc1)C(=O)N[C@H](CCCCN)C(=O)N[C@H](C)C(=O)N[C@H](Cc1ccccc1)C(=O)N[C@H](Cc1ccc(O)cc1)C(=O)N[C@H](CC(=O)O)C(=O)N[C@H](CCCCN)C(=O)N[C@@H](C(=O)N[C@H](C)C(=O)N[C@H](CCC(=O)O)C(=O)N[C@H](CCCCN)C(=O)N[C@H](Cc1ccccc1)C(=O)N[C@H](CCCCN)C(=O)N[C@H](CCC(=O)O)C(=O)N[C@H](C)C(=O)N[C@H](Cc1ccccc1)C(N)=O)C(C)C,"human, statin-treated high-risk CHD, both sexes, plasma","oral, 500 mg daily, day 13, mean, detected subjects only",1.99
O=C(O)c1cccc(S(=O)(=O)Nc2ccccc2)c1,"human, severe liver dysfunction, plasma","intravenous, 400 mg/m^2 belinostat, 30 min infusion, cycle 1 day -7",4.33
CN1CCC[C@]1(C)/C=C/S(=O)(=O)NC(=O)Nc1c2c(cc3c1CCC3)CCC2,"human, plasma","oral, 250 mg single dose",6.5

# Repeated from above:
SMILES,test system,conditions,half-life [h]
CONC(=O)/C=C/c1cccc(S(=O)(=O)Nc2ccccc2)c1,"human, severe liver dysfunction, plasma","intravenous, 400 mg/m^2 belinostat, 30 min infusion, cycle 1 day -7",2.22
